Measurements of several laboratories.
Protocols differ between the studies behind these lines. “And” joins repeats or separate records; there may be more than shown. Numbers after ± are the reported error.
Cell line: PC-3

| Compound | test | setting | how to read | endpoint | value |
| --- | --- | --- | --- | --- | --- |
| C=CCOc1ccc2c(C)c(CC)c(=O)oc2c1C | cell viability, MTT |  |  | IC50 | 221 µg/mL |
| O=C(Nc1nnc2n3c(nc(-c4ccc(Cl)cc4)c1-2)SCC3=O)c1ccccc1 | SRB | 10 µM, NCI60 single-dose screen, prostate cancer | relative to: untreated | cell growth | 101% |
| CCCN1CCN(c2ccc3[nH]c(-c4ccc5[nH]c(-c6cc(OC)c(OC)c(OC)c6)nc5c4)nc3c2)CC1 | SRB | 10 µM, 48 h |  | growth percent | 70.7% |
| Cc1n[nH]c2nc(-c3ccc(Cl)cc3)c3c(NC(=O)c4ccccc4)nnc-3n12 | SRB | 10 µM, NCI60 single-dose screen, prostate cancer | relative to: untreated | cell growth | 101% |
| CCc1c(C)c2ccc(OCC(=O)NNC(=S)Nc3ccccc3)c(C)c2oc1=O | cell viability, MTT |  |  | IC50 | 29.8 µg/mL |
| O=P1(C2CCCCC2)CCCCC1 | ELISA | IC50, 72 h |  | IL-6 level | 1.8 ± 0.66 pg/mL |
| CCCN1CCN(c2ccc3[nH]c(-c4ccc5[nH]c(-c6ccc(OCC)c(OCC)c6)nc5c4)nc3c2)CC1 | SRB | 10 µM, 48 h |  | growth percent | -40.6% |
| Nc1n[nH]c2nc(-c3cccc(O)c3)cc(-c3cc4cc(Cl)ccc4nc3N3CCOCC3)c12 | MTT |  | relative to: WI-38 EC50 over PC-3 IC50 | selectivity ratio | 0.801 |
| N=C(Nc1ccccc1)c1cc2c(-c3ccccc3)n[nH]c2c(Nc2ccccc2)n1 | flow cytometry | concentration not given, 48 h |  | G2/M phase cells | 26% |
| CCCCN1CCN(c2ccc3nc(-c4ccc5nc(-c6cc(OC)ccc6OC)[nH]c5c4)[nH]c3c2)CC1 | SRB | 10 µM, 48 h |  | growth percent | 97.2% |
| Cc1ncsc1-c1ccc(CNC(=O)[C@@H]2C[C@@H](O)CN2C(=O)[C@@H](NC(=O)CCCCCCCCCC(=O)N2CCN(CC[C@H](NC(=O)C3(N)CCN(c4ncnc5[nH]ccc45)CC3)c3ccc(Cl)cc3)CC2)C(C)(C)C)cc1 | immunoblot, item: PDCD4 | 1 µM, 24 h |  | protein level | increased |
| C#C[C@@]1(O)[C@@H](CO)O[C@@H](n2cc(F)c3c(N)ncnc32)[C@@H]1O | SRB | NCI-60 screen |  | TGI | 3.24 µM |
| CCCOc1nc(-c2cccc(O)c2)cc(-c2cc3ccccc3nc2N2CCOCC2)c1C#N | MTT |  | relative to: WI-38 EC50 over PC-3 IC50 | selectivity ratio | 0.781 |
| NNc1nc(-c2ccc(Cl)cc2)c2c(NC(=O)c3ccccc3)nnc-2[nH]1 | SRB | 10 µM, NCI60 single-dose screen, prostate cancer | relative to: untreated | cell growth | 91.7% |
| CCn1cc(-c2cc(Cn3ccoc3=N)cc3c2CCN([C@@H](C)c2cc(OC)ccn2)C3=O)c(C(F)(F)F)n1 | cell growth, inhibitor | 120 h |  | EC50 | > 30 µM |
| O=c1ccn(Cc2cn(-c3c4ccccc4nc4ccccc34)nn2)c(=O)[nH]1 | NCI60 single-dose screen | 10 µM |  | growth percentage | 97.5% |
| COc1cccc2c1C(=O)c1c(O)c3c(c(O)c1C2=O)C[C@@](O)(C(=O)CO)C[C@@H]3O[C@H]1C[C@H](N)[C@H](O)[C@H](C)O1 | MTT | 72 h | relative to: IC50 HaCaT over IC50 PC-3 | selectivity index | 1 |
| O=C1NC(c2ccccc2)(c2ccccc2)C(=O)N1Cc1cn(-c2c3ccccc3nc3ccccc23)nn1 | NCI60 single-dose screen | 10 µM |  | growth percentage | 78% |
| C#C[C@@]1(O)[C@@H](CO)O[C@@H](n2cc(Cl)c3c(N)ncnc32)[C@@H]1O | SRB | NCI-60 screen |  | TGI | 4.54 µM and 3.52 µM |
| Cc1cc(=O)[nH]c(=O)n1Cc1cn(-c2c3ccccc3nc3ccccc23)nn1 | NCI60 single-dose screen | 10 µM |  | growth percentage | 97.3% |
| Cc1cc(-c2ccccc2)n(-c2nc(-c3ccc(Cl)cc3)c3c(NC(=O)c4ccccc4)nnc-3[nH]2)n1 | SRB | 10 µM, NCI60 single-dose screen, prostate cancer | relative to: untreated | cell growth | 96.9% |

| Compound | test | setting | how to read | endpoint | value |
| --- | --- | --- | --- | --- | --- |
| COc1cccc2c1C(=O)c1c(O)c3c(c(O)c1C2=O)C[C@@](O)(C(=O)CO)C[C@@H]3O[C@H]1C[C@H](N)[C@H](O)[C@H](C)O1 | MTT |  | relative to: BJ1 over PC-3 | selectivity index | 0.8 |
| CCC(=O)N1CCC(COCC(=O)N2CCN(c3nc(-c4cnc(N)nc4C(F)F)nc(N4CCOC[C@@H]4C)n3)CC2)CC1 | western blot, item: phospho-S6 Ser235/Ser236 | 2 h |  | IC50 | 0.438 µM |
| Nc1n[nH]c2nc(-c3cccc(O)c3)cc(-c3cc4ccccc4nc3N3CCOCC3)c12 | MTT |  | relative to: WI-38 EC50 over PC-3 IC50 | selectivity ratio | 5.21 |
| CS(=O)(=O)N1CCN(Cc2cc3nc(-c4cccc5[nH]ncc45)nc(N4CCOCC4)c3s2)CC1 | immunoblot, item: AURKB | 1 µM, 24 h |  | protein level | decreased |
| CCOC(=O)CSc1nc(-c2ccc(Cl)cc2)c2c(NC(=O)c3ccccc3)nnc-2[nH]1 | SRB | 10 µM, NCI60 single-dose screen, prostate cancer | relative to: untreated | cell growth | 104% |
| C=CC(=O)N1CCC(COCC(=O)N2CCN(c3nc(-c4cnc(N)nc4C(F)F)nc(N4CCOC[C@@H]4C)n3)CC2)CC1 | resazurin growth rate inhibition | 72 h |  | GR50 | 774 nM |
| NC1(C(=O)N[C@@H](CCO)c2ccc(Cl)cc2)CCN(c2ncnc3[nH]ccc23)CC1 | immunoblot, item: PDCD4 | 1 µM, 24 h |  | protein level | increased |
| Cn1cncc1C1=CN(c2ncnc3[nH]cnc23)CCS1 |  | prostate cancer |  | GI50 | 19.5 µM |
| CCOc1ccc2c(C)c(CC)c(=O)oc2c1C | cell viability, MTT |  |  | IC50 | 126 µg/mL |
| O=C1NC(c2ccccc2)(c2ccccc2)C(=O)N1Cc1cn(-c2cc3ccccc3oc2=O)nn1 | NCI60 single-dose screen | 10 µM |  | growth percentage | 76.4% |
| NCc1cc2c(-c3ccccc3)n[nH]c2c(Nc2ccccc2)n1 | flow cytometry | concentration not given, 72 h |  | G2/M phase cells | 24% |
| C[C@H](Nc1ccc2c(c1)OCCn1cc(N3C(=O)OC[C@H]3C(F)F)nc1-2)C(N)=O | resazurin growth rate inhibition | 72 h |  | GR50 | > 5000 nM |
| CCCCN1CCN(c2ccc3[nH]c(-c4ccc5[nH]c(-c6ccc(OCC)c(OCC)c6)nc5c4)nc3c2)CC1 | SRB | 10 µM, 48 h |  | growth percent | -49.1% |
| Cc1c(Cc2ccccc2)c(=O)oc2c(C)c(OCC(=O)NN=Cc3ccc([N+](=O)[O-])cc3)ccc12 | cytotoxicity, MTT |  |  | IC50 | 11.2 µg/mL |
| Cc1nc(NC(=O)N2CCC[C@H]2C(N)=O)sc1-c1ccnc(C(C)(C)C(F)(F)F)c1 | immunoblot, item: PDCD4 | 1 µM, 24 h |  | protein level | increased |
| CCCCN1CCN(c2ccc3[nH]c(-c4ccc5[nH]c(-c6ccc(OCC)cc6)nc5c4)nc3c2)CC1 | SRB | 10 µM, 48 h |  | growth percent | 56.7% |
| C=CCNC(=S)NNC(=O)COc1ccc2c(C)c(CC)c(=O)oc2c1C | cell viability, MTT |  |  | IC50 | 96 µg/mL |
| CCn1cc(-c2cc(Cn3ccnc3)cc3c2CCN([C@H](c2cc(OC)ccn2)C2CC2)C3=O)c(C(F)(F)F)n1 | cell growth, inhibitor | 120 h |  | EC50 | > 30 µM |
| CCCCCCCCCc1ccc(C(=O)Nc2cc(C)ccc2C(=O)OC)cc1 | immunoblot, item: phospho-TCTP Ser46 | concentration not given, 23 h |  | TCTP Ser46 phosphorylation | no effect |
| CN1CCN(c2ccc3[nH]c(-c4ccc5[nH]c(-c6ccc(C(F)(F)F)cc6)nc5c4)nc3c2)CC1 | SRB | 10 µM, 48 h |  | growth percent | 30.2% |

For quick reference, copied from above:
| Compound | test | setting | how to read | endpoint | value |
| --- | --- | --- | --- | --- | --- |
| Nc1n[nH]c2nc(-c3cccc(O)c3)cc(-c3cc4ccccc4nc3N3CCOCC3)c12 | MTT |  | relative to: WI-38 EC50 over PC-3 IC50 | selectivity ratio | 5.21 |
| CS(=O)(=O)N1CCN(Cc2cc3nc(-c4cccc5[nH]ncc45)nc(N4CCOCC4)c3s2)CC1 | immunoblot, item: AURKB | 1 µM, 24 h |  | protein level | decreased |
| CCOC(=O)CSc1nc(-c2ccc(Cl)cc2)c2c(NC(=O)c3ccccc3)nnc-2[nH]1 | SRB | 10 µM, NCI60 single-dose screen, prostate cancer | relative to: untreated | cell growth | 104% |
| C=CC(=O)N1CCC(COCC(=O)N2CCN(c3nc(-c4cnc(N)nc4C(F)F)nc(N4CCOC[C@@H]4C)n3)CC2)CC1 | resazurin growth rate inhibition | 72 h |  | GR50 | 774 nM |
| NC1(C(=O)N[C@@H](CCO)c2ccc(Cl)cc2)CCN(c2ncnc3[nH]ccc23)CC1 | immunoblot, item: PDCD4 | 1 µM, 24 h |  | protein level | increased |
| Cn1cncc1C1=CN(c2ncnc3[nH]cnc23)CCS1 |  | prostate cancer |  | GI50 | 19.5 µM |
